Results pooled from the literature.
Lines come from different studies, so protocols differ. Several values in a cell are separate wells, animals, samples, runs or records. ± marks the error that the study gave. Converted amounts (≈) assume the structure as drawn.

SMILES | test | system | setting | measurement | result
Clc1ccc(-c2cc(Cl)c(Cl)cc2Cl)cc1Cl |  | whole cow milk | 2000 nM nominal | dose fraction in milk fat | 88.2%
CO[C@H]1C[C@@H]2CC[C@@H](C)[C@@](O)(O2)C(=O)C(=O)N2CCCC[C@H]2C(=O)O[C@H]([C@H](C)C[C@@H]2CC[C@@H](OC(=O)NCCOCCOCCOCCOCCOCCOCCOCCOCCC(=O)N3CCc4cc(Cn5nc(-c6ccc7oc(N)nc7c6)c6c(N)ncnc65)ccc4C3)[C@H](OC)C2)C[C@@H](O)[C@H](C)/C=C(\C)[C@@H](O)[C@@H](OC)C(=O)[C@H](C)C[C@H](C)/C=C/C=C/C=C/1C | phase 1 dose escalation, item: decreased appetite | advanced solid tumour patients | intravenous, 12 mg weekly, grade ≥3 | TRAE incidence | 8.3%
CCc1ccc(CC/C=C/c2ccc3c(c2)C(=O)CC3)cc1 |  | Sprague-Dawley rat, male | oral, 120 mg/kg/day, 14 days | Urea | 4.87 mM
COc1cccc(Oc2ccccc2NC(=O)CNC(=O)c2cccc3ccccc23)c1 |  | esterase-deficient SCID mice, male | oral, 40 mg/kg/day, 14 days, toxicity study | sodium/potassium ratio | 18 and 22
COc1ccc(C[C@@H]2NC(=O)[C@H]([C@@H](C)O)NC(=O)[C@@H]3[C@@H]4CCN3C(=O)[C@@H]3Cc5cn(c6ccc(F)cc56)CCCCCCN(Cc5ccc(cc5)CCNC(=O)[C@]5(C)CCCN5C2=O)C(=O)CCC(=O)N[C@@H](C)C(=O)N[C@H](CNC(=O)CCCCC[N+](C)(C)C)C(=O)N[C@@H](Cc2cccc(c2)CNC(=O)CO4)C(=O)N3)cc1 | item: Headache | humans | concentration not given, Study-001 | participants with adverse event | 27.5%
CC(C)(O)c1cc(Nc2cc(Oc3cn(C4CC4)nc3C3CCOCC3)ccn2)ccn1 | Headache | patients with advanced cancer, Japanese cohort | oral, dose not given, grade ≥3 | treatment-related adverse events | 0%
COc1cc(Nc2ncc(F)c(Nc3ccc4c(n3)NC(=O)C(C)(C)O4)n2)cc(OC)c1OC |  | kinase assay buffer | 3 h, 0.3% DMSO | solubility | 74.3 µM (≈ 35 µg/mL)
CCCCCCCCCCC[C@H](OC1OC[C@H](O)[C@@H](O)[C@@H]1O)[C@H](O)[C@H](O)C[C@@H]1CC(=O)N[C@H](CO)C(=O)N[C@H]([C@H](O)c2ccc(O)cc2)C(=O)N[C@H](CCN)C(=O)NCC(=O)N[C@@H](CC(N)=O)C(=O)N[C@@H](CO)C(=O)N[C@@H]([C@H](O)C(N)=O)C(=O)N1 (some centres unmarked) | LC-MS/MS | rabbit plasma, sodium citrate | 800 ng/mL, 3 freeze-thaw cycles, stored at -80°C | measured concentration | 768 ng/mL
COc1cc2c(Oc3ccc4[nH]c(C)cc4c3F)ccnc2cc1OCC1(N)CC1 |  | paediatric recurrent refractory sarcoma | 8 mg | grade 3 Rash | 0%
O=S(=O)(Nc1ccccc1)c1ccc(NC(=S)Nc2ccccc2)cc1 |  | female mouse, blood | oral, 80 mg/kg daily, 14 days | mean corpuscular haemoglobin | 15.4 pg
O=C1Nc2cc3[nH]nc(-c4ccncc4)c3cc2CN1Cc1ccccc1 | item: Cough | patients with advanced solid tumours | intravenous, dose not given, all schedules | patients with TEAE | 15%
C=CC(=O)N1CC[C@H](n2nc(C#Cc3cc(OC)cc(OC)c3)c3c(N)ncnc32)C1 |  | patients with advanced solid tumours | oral, dose not given, Nausea, any grade, QD, added: ferric citrate hydrate | adverse drug reaction incidence | 0%
CC(C)Nc1ccnc(Nc2cccc(-c3cccnc3)c2)n1 | item: Phosphorus | mouse, blood | intraperitoneal, 5 mg/kg | blood chemistry | 12 mg/dL
Cn1nc(NS(C)(=O)=O)c2c(Cl)ccc(-n3c([C@H](Cc4cc(F)cc(F)c4)NC(=O)Cn4nc(C(F)F)c5c4C(F)(F)[C@@H]4C[C@H]54)nc4nc(OCCC(F)(F)F)ccc4c3=O)c21 | item: total bile acids increased | human | 25 mg, powder in bottle | drug-related adverse events | 0%
N#CCNC(=O)c1ccc(-c2ccnc(Nc3ccc(N4CCOCC4)cc3)n2)cc1 |  | healthy volunteers | oral, 200 mg, added: midazolam 5 mg | feeling hot incidence | 0%
C[C@@H]1OC(=O)NN=C1c1ccc(-c2ccc(F)cc2)c(C(F)(F)F)c1 | phase I trial, item: Cough worst grade 1 | human patients | 20 mg loading then 1 mg daily | patients with adverse event | 50%
O=C(O)CCCOc1ccc(F)cc1-c1cc(-c2ccccc2C(F)(F)F)n(-c2ccccc2)n1 |  | female Crl:CD(SD) rats, uterus | intravenous, 25 µg/kg, 1 d | organ weight | 0.47 ± 0.11 g
COc1ccc2nc3cc(Cl)ccc3c(Nc3cc(CN4CCCC4)c(O)c(CN4CCCC4)c3)c2n1 |  | mouse, blood | intraperitoneal, 14 mg/kg | mean platelet volume | 6.2 fL
CC(C)[C@H](N)C(=O)NCCCS(=O)(=O)O |  | human, plasma | oral, 265 mg twice daily days 2-6, once daily day 7, day 7, fed, tablet | Cmax | 6460 ng/mL
CC(C)C[C@H](NC(=O)[C@H](CCCCN)NC(=O)OCC1c2ccccc2-c2ccccc21)C(=O)N[C@H](C(=O)N[C@@H](Cc1ccccc1)C(=O)N[C@@H](Cc1ccccc1)C(=O)N[C@@H](CCCCN)C(=O)NCC(=O)N[C@@H](Cc1ccccc1)C(=O)N[C@@H](C)C(=O)N[C@@H](Cc1c[nH]c2ccccc12)C(=O)N[C@@H](CC(N)=O)C(=O)N[C@H](C(=O)N[C@H]1CSSC[C@@H](C(=O)N[C@@H](Cc2c[nH]cn2)C(=O)N[C@@H](CCCNC(=N)N)C(=O)N[C@@H](CCCNC(=N)N)C(=O)N[C@@H](C)C(=O)N[C@@H](CC(N)=O)C(N)=O)NC(=O)[C@H](C(C)C)NC(=O)[C@H](CCCNC(=N)N)NC(=O)[C@H](C(C)C)NC(=O)CNC(=O)[C@H](CC(N)=O)NC(=O)[C@H](CCCNC(=N)N)NC(=O)[C@H](Cc2ccc(O)cc2)NC(=O)[C@H](C(C)C)NC1=O)C(C)C)C(C)C |  | ICR mice, serum | intraductal mammary, 5 mg/kg, day 5 | total protein | 52.1 ± 1.01 g/L
C[C@]1(CO)Cc2ncn(-c3ccc(C#N)c(Cl)c3)c2C(=O)O1 | item: abnormal skin odour | human | 3 mg multiple doses, fasted | subjects with drug-related TEAE | 11.1%
Cc1cccc(Cn2nc(C3CC3)c3c(NC(=O)c4cnc5cc(OCCN6CCN(C)CC6)ccn45)cccc32)n1 | CTCAE v4.03, item: blood CPK increased | pancreatic ductal adenocarcinoma patients | oral, dose not given, added: pembrolizumab IV every 3 weeks | all-cause adverse events | 18.5%
C=CC(=O)Nc1cc(Nc2nccc(Nc3cc(Cl)c(F)cc3C(C)(C)O)n2)c(OC)cc1N1CC[C@@H](N(C)C)C1 |  | human patients | oral, 100 mg, treatment-emergent adverse events | patients with pneumonia | 11.1%
CC[C@H](C)[C@H](NC(=O)[C@H](Cc1ccccc1)NC(=O)[C@H](CCC(=O)O)NC(=O)[C@H](CCCNC(=N)N)NC(=O)[C@H](C)NC(=O)[C@H](C)NC(=O)[C@H](CCC(N)=O)NC(=O)[C@H](CCC(=O)O)NC(=O)[C@H](CCC(=O)O)NC(=O)[C@H](CC(C)C)NC(=O)[C@H](Cc1ccc(O)cc1)NC(=O)[C@H](CO)NC(=O)[C@H](CO)NC(=O)[C@@H](NC(=O)[C@H](CC(=O)O)NC(=O)[C@H](CO)NC(=O)[C@@H](NC(=O)[C@H](Cc1ccccc1)NC(=O)[C@@H](NC(=O)CNC(=O)[C@H](CCC(=O)O)NC(=O)[C@H](C)NC(=O)CCc1cnc[nH]1)[C@@H](C)O)[C@@H](C)O)C(C)C)C(=O)N[C@@H](C)C(=O)N[C@@H](Cc1c[nH]c2ccccc12)C(=O)N[C@@H](CC(C)C)C(=O)N[C@H](C(=O)N[C@@H](CCCNC(=N)N)C(=O)NCC(=O)N[C@@H](CCCNC(=N)N)C(=O)N[C@@H](CCCCNC(=O)COCCOCCNC(=O)COCCOCCNC(=O)CC[C@H](NC(=O)CCCCCCCCCCCCCCCCC(=O)O)C(=O)O)C(=O)NCC(=O)NCC(=O)N[C@@H](CO)C(=O)N[C@@H](CCCCNC(=O)[C@H](CCCCNC(=O)[C@H](CCCCNc1c(NCCCCCN(O)C(=O)CCC(=O)NCCCCCN(O)C(=O)CCC(=O)NCCCCCN(O)C(C)=O)c(=O)c1=O)Nc1c(NCCCCCN(O)C(=O)CCC(=O)NCCCCCN(O)C(=O)CCC(=O)NCCCCCN(O)C(C)=O)c(=O)c1=O)NC(=O)[C@H](CCCCNc1c(NCCCCCN(O)C(=O)CCC(=O)NCCCCCN(O)C(=O)CCC(=O)NCCCCCN(O)C(C)=O)c(=O)c1=O)Nc1c(NCCCCCN(O)C(=O)CCC(=O)NCCCCCN(O)C(=O)CCC(=O)NCCCCCN(O)C(C)=O)c(=O)c1=O)C(=O)O)C(C)C [zirconium-89 labelled] | ex vivo gamma counting | male Sprague-Dawley rat, knee | intravenous, 1 nmol, 24 h | tissue uptake | 0.465 %ID/g
Oc1ccc(CSCc2ccc(O)cc2)cc1 |  | ICR mice male | oral, 6000 mg/kg, day 15, acute toxicity | body weight | 37.5 ± 1.78 g
NC(=O)[C@H]1CCN(c2ncnc(N)c2F)C[C@@H]1N1CCC[C@@H](Nc2cc(Cl)cc(C(F)(F)F)c2)C1=O |  | B-cell malignancy patients | oral, 246 mg twice daily, dose | grade ≥3 bilirubin increase | 20%

A few entries again:
SMILES | test | system | setting | measurement | result
O=S(=O)(Nc1ccccc1)c1ccc(NC(=S)Nc2ccccc2)cc1 |  | female mouse, blood | oral, 80 mg/kg daily, 14 days | mean corpuscular haemoglobin | 15.4 pg
CCCCCCCCCCC[C@H](OC1OC[C@H](O)[C@@H](O)[C@@H]1O)[C@H](O)[C@H](O)C[C@@H]1CC(=O)N[C@H](CO)C(=O)N[C@H]([C@H](O)c2ccc(O)cc2)C(=O)N[C@H](CCN)C(=O)NCC(=O)N[C@@H](CC(N)=O)C(=O)N[C@@H](CO)C(=O)N[C@@H]([C@H](O)C(N)=O)C(=O)N1 (some centres unmarked) | LC-MS/MS | rabbit plasma, sodium citrate | 800 ng/mL, 3 freeze-thaw cycles, stored at -80°C | measured concentration | 768 ng/mL
